Measured values from different studies.
Compare with care: the assays were run in different laboratories.
Target: MAP/microtubule affinity-regulating kinase 4 (MARK4, Homo sapiens, UniProt Q96L34)
Sequence (Q96L34 1-752, as in one of the studies): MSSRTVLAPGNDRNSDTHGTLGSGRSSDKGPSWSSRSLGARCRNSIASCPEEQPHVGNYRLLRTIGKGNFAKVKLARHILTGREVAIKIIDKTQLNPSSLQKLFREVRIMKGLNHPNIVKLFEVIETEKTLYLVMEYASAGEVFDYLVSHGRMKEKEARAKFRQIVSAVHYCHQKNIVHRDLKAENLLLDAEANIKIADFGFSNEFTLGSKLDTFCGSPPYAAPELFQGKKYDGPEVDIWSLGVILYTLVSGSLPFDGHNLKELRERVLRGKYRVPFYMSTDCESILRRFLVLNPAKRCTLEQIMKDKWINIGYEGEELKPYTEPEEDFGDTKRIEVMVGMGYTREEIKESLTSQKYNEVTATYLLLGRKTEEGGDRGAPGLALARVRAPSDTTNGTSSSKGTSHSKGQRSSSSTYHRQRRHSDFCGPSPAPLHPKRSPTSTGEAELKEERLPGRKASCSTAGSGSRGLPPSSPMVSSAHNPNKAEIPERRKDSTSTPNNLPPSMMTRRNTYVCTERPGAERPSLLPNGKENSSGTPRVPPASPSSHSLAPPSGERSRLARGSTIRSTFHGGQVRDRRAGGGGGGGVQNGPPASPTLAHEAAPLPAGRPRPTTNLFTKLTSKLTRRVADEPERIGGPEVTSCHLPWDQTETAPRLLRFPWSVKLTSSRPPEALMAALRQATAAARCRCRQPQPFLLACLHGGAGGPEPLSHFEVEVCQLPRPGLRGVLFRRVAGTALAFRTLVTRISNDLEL

| Structure (SMILES) | test | test system | conditions | scale | quantity | value |
| --- | --- | --- | --- | --- | --- | --- |
| Cc1cccc(O[C@H]2CCC[C@@H](C(C)CNCc3ccncc3)C2)c1 (relative stereo) | kinase activity, kinome panel screening | – | 1 µM | – | inhibition | -1% |
| C=CC(=O)Nc1cccc(-c2cnc3[nH]cc(C(=O)NC(C)(C)C)c3n2)c1 | enzyme activity, inhibitor | – | 0.1 µM | – | inhibition | 54% |
| C=CC(=O)N1CCCC(n2c(=O)c3ncccc3n(Cc3ccc(Oc4ccccc4)cc3)c2=O)C1 (centres unmarked) | cell-free assay, competition with immobilised ligand | – | 1 µM | – | remaining binding | 90% |
| C=CC(=O)N1CCc2ccc(-n3c(=O)ccc4cnc5ccc(-c6cnn(C)c6)cc5c43)cc21 | KINOMEscan | – | 1 µM | reference: DMSO control | remaining binding | 100% |
| CNC(=O)C[C@H](Cc1ccc(C#N)cc1)NC(=O)c1cc(-c2ccc(CN[C@H](C)c3ccc(C)cc3)o2)ccc1Cl | enzyme activity, inhibitor | – | 1 µM | – | activity vs control | 88% |
| CNC(=O)C1CCN(c2cc(C)c(F)cc2NC(=O)c2ccc(-c3cc(O)ccc3C)c(C)c2)CC1 | binding, competition with immobilised ligand | – | 1 µM | – | remaining binding | 96% |
| Cc1cnc2nc1Nc1cccc(c1)COC/C=C/COCc1cc(ccc1OCCN1CCOCC1)N2 | – | – | concentration not given | – | percent of control | 100% |
| CCN1CCN(Cc2ccc(C(=O)Nc3ccc(C)c(NCc4cnc5[nH]ccc5c4OC)c3)cc2C(F)(F)F)CC1 | binding, competition with immobilised ligand | – | 1 µM | – | remaining binding | 59% |
| CNC1C[S+]2CC[S+]3CC[S+](C1)[Ru-4]321([N]=C=S)[n]2c3ccc(OC)cc3c3c4c(c5cc(F)c[n+]1c5c32)C(=O)NC4=O (centres unmarked) | KinomeScan | – | 0.1 µM | reference: untreated | remaining binding | 71% |
| Cc1ccc(-c2c(/C=C(\C#N)C(=O)NC(C)C)n(CCCO)c3ncnc(N)c23)cc1 | cell-free assay, competition with immobilised ligand | – | 1 µM | – | remaining binding | 82% |
| COc1ccc(O)cc1-c1c[nH]c2ncc(-c3cncc(C(=O)N(C)C)c3)cc12 | binding, competition with immobilised ligand | – | 0.2 µM | – | inhibition | 72.1% |
| COc1cc(Nc2nccc(-c3cnn4nc(OC)ccc34)n2)cc(C(F)(F)F)c1 | binding, competition with immobilised ligand | – | 1 µM | – | remaining binding | 89% |
| CS(=O)(=O)Nc1cccc(-c2csc3cnc(Nc4ccc(N5CCN(CCCCCOc6cccc7c6C(=O)N(C6CCC(=O)NC6=O)C7=O)CC5)cc4)nc23)c1 (centres unmarked) | probe labelling, inhibitor, KiNativ chemoproteomics | MOLT-4 | 1 µM | – | inhibition | -3.48% |
| NC(=O)[C@@H](O)C[C@H]1CCc2sc3ncnc(O[C@H]4CC[C@H](N5CCOCC5)CC4)c3c21 | enzyme activity, inhibitor | – | 10 µM | – | inhibition | 7% |

Excerpt of the above:
| Structure (SMILES) | test | test system | conditions | scale | quantity | value |
| --- | --- | --- | --- | --- | --- | --- |
| CS(=O)(=O)Nc1cccc(-c2csc3cnc(Nc4ccc(N5CCN(CCCCCOc6cccc7c6C(=O)N(C6CCC(=O)NC6=O)C7=O)CC5)cc4)nc23)c1 (centres unmarked) | probe labelling, inhibitor, KiNativ chemoproteomics | MOLT-4 | 1 µM | – | inhibition | -3.48% |
| NC(=O)[C@@H](O)C[C@H]1CCc2sc3ncnc(O[C@H]4CC[C@H](N5CCOCC5)CC4)c3c21 | enzyme activity, inhibitor | – | 10 µM | – | inhibition | 7% |
